{"data": "Assay results collected from several papers", "note": "Compare with care: the assays were run in different laboratories. Several values in a cell are separate wells, animals, samples, runs or records. Numbers after ± are the reported error.", "sequence of UniProt Q9Y2J8 (whole entry, looked up)": "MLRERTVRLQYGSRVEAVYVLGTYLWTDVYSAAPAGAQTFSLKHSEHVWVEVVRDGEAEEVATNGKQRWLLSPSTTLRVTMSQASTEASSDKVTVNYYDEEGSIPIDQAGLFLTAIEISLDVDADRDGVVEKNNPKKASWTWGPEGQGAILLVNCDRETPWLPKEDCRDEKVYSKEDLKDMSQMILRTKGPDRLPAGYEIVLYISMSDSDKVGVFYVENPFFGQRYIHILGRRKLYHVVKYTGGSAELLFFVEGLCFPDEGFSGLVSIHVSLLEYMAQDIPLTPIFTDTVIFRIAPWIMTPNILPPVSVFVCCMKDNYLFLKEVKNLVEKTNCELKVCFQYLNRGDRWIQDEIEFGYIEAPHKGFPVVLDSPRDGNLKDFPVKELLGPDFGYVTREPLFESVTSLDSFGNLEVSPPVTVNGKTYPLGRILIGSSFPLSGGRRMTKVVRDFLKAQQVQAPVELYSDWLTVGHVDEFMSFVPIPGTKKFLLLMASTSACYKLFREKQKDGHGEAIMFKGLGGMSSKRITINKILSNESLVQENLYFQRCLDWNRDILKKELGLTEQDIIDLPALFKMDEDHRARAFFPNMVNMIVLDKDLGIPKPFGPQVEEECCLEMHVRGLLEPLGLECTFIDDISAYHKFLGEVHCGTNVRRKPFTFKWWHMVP", "sequence of UniProt Q15208 (whole entry, looked up)": "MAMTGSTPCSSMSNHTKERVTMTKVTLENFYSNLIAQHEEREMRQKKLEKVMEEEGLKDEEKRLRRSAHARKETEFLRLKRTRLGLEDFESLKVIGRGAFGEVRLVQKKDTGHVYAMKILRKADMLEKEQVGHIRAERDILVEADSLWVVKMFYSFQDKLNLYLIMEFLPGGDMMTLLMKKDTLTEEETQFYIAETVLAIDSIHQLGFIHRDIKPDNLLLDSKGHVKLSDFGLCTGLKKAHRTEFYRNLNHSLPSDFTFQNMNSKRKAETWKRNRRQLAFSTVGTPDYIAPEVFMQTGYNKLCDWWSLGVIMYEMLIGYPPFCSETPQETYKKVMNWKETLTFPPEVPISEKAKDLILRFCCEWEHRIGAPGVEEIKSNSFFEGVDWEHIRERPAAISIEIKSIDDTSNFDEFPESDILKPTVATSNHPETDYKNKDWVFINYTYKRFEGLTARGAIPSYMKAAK", "sequence of UniProt Q9BUB5 (whole entry, looked up)": "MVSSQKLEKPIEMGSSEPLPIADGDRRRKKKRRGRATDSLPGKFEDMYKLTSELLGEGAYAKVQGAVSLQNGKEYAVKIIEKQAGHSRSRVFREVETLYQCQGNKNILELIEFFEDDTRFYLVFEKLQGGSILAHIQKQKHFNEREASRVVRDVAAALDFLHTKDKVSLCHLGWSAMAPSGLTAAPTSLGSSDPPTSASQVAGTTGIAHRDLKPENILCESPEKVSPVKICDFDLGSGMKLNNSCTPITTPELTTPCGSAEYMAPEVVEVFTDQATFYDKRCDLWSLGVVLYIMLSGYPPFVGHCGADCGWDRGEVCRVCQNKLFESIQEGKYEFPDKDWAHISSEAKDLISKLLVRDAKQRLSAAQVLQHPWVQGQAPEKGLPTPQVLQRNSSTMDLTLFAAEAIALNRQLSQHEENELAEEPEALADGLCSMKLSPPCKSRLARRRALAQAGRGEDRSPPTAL", "sequence of UniProt P17948 (whole entry, looked up)": "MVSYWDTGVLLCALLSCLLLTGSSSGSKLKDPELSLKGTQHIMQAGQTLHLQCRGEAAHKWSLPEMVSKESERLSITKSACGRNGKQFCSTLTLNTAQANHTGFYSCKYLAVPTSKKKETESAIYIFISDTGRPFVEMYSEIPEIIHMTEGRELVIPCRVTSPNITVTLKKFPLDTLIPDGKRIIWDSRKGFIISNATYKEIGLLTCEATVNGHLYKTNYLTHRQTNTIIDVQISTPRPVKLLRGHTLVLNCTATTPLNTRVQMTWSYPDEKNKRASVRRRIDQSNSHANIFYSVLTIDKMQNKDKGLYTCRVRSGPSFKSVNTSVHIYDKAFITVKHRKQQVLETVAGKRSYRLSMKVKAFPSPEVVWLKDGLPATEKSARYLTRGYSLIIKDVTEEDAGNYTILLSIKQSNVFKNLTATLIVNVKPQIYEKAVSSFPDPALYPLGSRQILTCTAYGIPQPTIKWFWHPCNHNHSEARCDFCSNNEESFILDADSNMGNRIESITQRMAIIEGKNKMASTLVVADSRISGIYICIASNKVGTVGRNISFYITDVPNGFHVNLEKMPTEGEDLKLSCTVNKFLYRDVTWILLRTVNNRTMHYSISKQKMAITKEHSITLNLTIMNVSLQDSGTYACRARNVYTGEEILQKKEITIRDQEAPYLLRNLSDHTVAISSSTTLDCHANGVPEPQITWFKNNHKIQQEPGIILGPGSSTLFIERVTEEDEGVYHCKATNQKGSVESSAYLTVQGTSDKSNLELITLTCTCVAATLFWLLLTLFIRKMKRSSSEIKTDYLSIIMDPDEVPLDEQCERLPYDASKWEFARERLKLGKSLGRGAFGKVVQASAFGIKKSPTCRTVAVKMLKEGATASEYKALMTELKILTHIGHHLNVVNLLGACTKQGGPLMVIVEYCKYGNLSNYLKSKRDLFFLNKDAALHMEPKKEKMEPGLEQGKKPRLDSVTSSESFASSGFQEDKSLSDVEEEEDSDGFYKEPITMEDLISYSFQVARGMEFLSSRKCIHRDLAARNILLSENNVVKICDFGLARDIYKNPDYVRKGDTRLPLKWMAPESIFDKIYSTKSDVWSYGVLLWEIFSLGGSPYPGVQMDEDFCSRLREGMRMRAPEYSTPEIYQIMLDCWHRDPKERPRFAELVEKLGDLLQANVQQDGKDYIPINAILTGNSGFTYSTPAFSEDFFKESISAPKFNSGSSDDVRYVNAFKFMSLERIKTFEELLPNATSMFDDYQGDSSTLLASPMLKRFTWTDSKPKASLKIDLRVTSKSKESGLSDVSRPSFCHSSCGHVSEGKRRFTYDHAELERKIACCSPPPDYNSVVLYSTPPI", "sequence of UniProt P0A988 (whole entry, unmodified, looked up)": "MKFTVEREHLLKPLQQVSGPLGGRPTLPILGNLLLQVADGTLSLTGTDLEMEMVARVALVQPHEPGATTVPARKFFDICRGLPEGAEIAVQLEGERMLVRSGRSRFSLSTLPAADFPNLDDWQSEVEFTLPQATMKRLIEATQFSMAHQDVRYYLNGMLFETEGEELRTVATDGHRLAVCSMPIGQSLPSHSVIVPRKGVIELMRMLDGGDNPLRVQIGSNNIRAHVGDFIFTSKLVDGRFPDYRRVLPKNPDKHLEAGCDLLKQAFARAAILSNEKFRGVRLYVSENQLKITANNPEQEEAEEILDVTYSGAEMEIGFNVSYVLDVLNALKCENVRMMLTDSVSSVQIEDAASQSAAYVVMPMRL", "sequence of UniProt P0C264 (whole entry, looked up)": "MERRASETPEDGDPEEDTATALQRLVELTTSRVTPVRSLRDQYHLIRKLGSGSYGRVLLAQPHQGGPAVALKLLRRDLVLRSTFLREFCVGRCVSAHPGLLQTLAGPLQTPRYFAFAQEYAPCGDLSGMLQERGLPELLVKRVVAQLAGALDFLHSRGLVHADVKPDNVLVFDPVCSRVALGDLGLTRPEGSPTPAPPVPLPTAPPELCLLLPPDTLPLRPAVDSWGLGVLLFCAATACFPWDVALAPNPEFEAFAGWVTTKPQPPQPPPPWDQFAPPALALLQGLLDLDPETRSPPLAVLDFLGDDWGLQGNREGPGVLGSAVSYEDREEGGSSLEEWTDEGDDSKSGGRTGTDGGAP", "sequence of UniProt Q704Y3 (whole entry, unmodified, looked up)": "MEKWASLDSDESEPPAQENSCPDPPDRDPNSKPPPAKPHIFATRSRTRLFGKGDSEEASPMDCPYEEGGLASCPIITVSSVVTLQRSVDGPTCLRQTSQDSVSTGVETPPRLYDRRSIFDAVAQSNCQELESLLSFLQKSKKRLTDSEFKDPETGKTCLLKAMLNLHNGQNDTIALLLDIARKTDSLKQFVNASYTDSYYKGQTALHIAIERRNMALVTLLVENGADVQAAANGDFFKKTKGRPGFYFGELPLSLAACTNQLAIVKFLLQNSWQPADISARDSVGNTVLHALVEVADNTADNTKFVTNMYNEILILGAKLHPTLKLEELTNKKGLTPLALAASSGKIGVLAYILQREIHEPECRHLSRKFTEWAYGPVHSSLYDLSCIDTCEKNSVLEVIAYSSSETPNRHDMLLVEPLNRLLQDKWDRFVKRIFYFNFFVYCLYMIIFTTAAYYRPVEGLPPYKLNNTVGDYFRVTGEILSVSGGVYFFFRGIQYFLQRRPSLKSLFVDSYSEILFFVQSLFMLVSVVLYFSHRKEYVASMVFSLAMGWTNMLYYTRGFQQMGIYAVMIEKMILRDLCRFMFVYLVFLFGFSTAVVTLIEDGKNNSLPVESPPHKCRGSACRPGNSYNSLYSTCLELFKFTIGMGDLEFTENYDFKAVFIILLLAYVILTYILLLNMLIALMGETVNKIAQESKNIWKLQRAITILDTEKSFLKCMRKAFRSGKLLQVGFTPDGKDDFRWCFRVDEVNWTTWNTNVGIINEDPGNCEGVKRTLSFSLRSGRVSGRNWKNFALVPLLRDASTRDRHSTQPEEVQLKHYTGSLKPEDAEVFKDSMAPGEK", "sequence of UniProt Q8VD66 (whole entry, looked up)": "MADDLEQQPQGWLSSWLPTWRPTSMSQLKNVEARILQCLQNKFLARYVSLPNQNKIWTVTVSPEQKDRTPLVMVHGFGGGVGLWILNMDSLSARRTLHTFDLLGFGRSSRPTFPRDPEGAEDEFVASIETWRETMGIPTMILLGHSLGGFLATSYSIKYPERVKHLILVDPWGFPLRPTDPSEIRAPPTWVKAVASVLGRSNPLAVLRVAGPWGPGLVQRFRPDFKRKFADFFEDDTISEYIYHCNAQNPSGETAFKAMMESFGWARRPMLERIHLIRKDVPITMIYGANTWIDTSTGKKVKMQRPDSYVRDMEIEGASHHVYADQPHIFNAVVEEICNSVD"}
{"Structure (SMILES)": "O=C(Cc1ccc(Cl)c(Cl)c1)N1CCN[C@@H]2COC[C@H](N3CCCC3)[C@H]21", "target": "OPRK1 (Homo sapiens, UniProt P41145)", "assay": "β-arrestin-2 recruitment, agonist", "test system": "U2OS", "conditions": "1.5 h", "scale": "baseline: U-69593 maximal response", "measurement": "Emax", "result": "53%"}
{"Structure (SMILES)": "CC(C)[C@H]1NC(=O)C[C@H]2/C=C/CCSSC[C@@H](NC1=O)C(=O)N[C@H](Cc1cccc3ccccc13)C(=O)NCC(=O)O2", "target": "MKNK1 (Homo sapiens, UniProt Q9BUB5)", "assay": "enzyme activity, inhibitor", "conditions": "10 µM", "measurement": "inhibition", "result": "1.3%"}
{"Structure (SMILES)": "CCCCC/C=C\\C/C=C\\C/C=C\\C/C=C\\CCCC(=O)NCCc1ccc(O)c(O)c1", "target": "Trpv1 (Mus musculus, UniProt Q704Y3, E571S)", "assay": "ion current, agonist, whole-cell patch clamp", "conditions": "E571S", "scale": "baseline: 3 mM 2-APB", "measurement": "maximal open probability", "result": "0.6 ± 0.02"}
{"Structure (SMILES)": "O=C(O)c1ccc(-c2nc(-c3ccccc3Cl)c3sccn23)cc1", "target": "BLVRA (Homo sapiens, UniProt P53004)", "assay": "enzyme activity, inhibitor", "conditions": "10 µM, together with: biliverdin IXα 25 µM", "measurement": "remaining activity", "result": "96%"}
{"Structure (SMILES)": "CSCC[C@@H](N)C(=O)N[C@H](C)C(=O)N[C@H](C)C(=O)N[C@@H](C(=O)N[C@H](C)C(=O)NCC(=O)N[C@H](CC(C)C)C(=O)N[C@H](Cc1ccc(O)cc1)C(=O)NCC(=O)N[C@H](CC(C)C)C(=O)NCC(=O)N[C@H](CCC(=O)O)C(=O)N[C@H](CC(=O)O)C(=O)N[C@H](CCCNC(=N)N)C(=O)N[C@H](CCC(N)=O)C(=O)N[C@H](Cc1c[nH]cn1)C(=O)N[C@H](CCCNC(=N)N)C(=O)N[C@H](CCCCN)C(=O)N[C@H](CCCCN)C(=O)N[C@H](CCC(N)=O)C(N)=O)C(C)C", "target": "Sh, DEL6-46 (Drosophila melanogaster, UniProt P08510)", "assay": "ion current, blocker, inside-out patch clamp", "conditions": "+50 mV", "measurement": "Hill coefficient", "result": 0.86}
{"Structure (SMILES)": "O=C(N1CCCCC1)n1ccnn1", "target": "(Lyso)-N-acylphosphatidylethanolamine lipase (Abhd4, Mus musculus, UniProt Q8VD66)", "assay": "probe labelling, inhibitor, competitive ABPP-SILAC, refers to: Abhd4", "test system": "mouse T cells", "conditions": "concentration not given, 4 h, protein level", "scale": "baseline: treated over DMSO cells, lower = stronger inhibition", "measurement": "SILAC activity ratio", "result": 1.1}
{"Structure (SMILES)": "O=C(N[C@@H]1c2ccccc2C[C@H]1N1CCCC1)c1ccc(-c2ccnc3[nH]ccc23)nc1", "target": "SBK3 (Homo sapiens, UniProt P0C264)", "assay": "binding, competition with immobilised ligand", "conditions": "3 µM", "measurement": "remaining binding", "result": "7.1%"}
{"Structure (SMILES)": "CN(C)[C@H]1C[C@@]23CC[C@@]4(O2)C(=CC[C@]2(C)[C@@H](c5ccc6ccncc6c5)CC[C@H]24)C=C3[C@@H](O)[C@@H]1O", "target": "STK38 (Homo sapiens, UniProt Q15208)", "assay": "ATP probe labelling, inhibitor, KiNativ profiling", "conditions": "0.1 µM", "measurement": "inhibition", "result": "-0.7%"}
{"Structure (SMILES)": "OB(O)c1ccc(OCc2ccccc2)nc1F", "target": "Chymotrypsinogen A (Bos taurus, UniProt P00766)", "assay": "pNA substrate hydrolysis", "scale": "baseline: Ki protease over Ki AmpC", "measurement": "selectivity ratio", "result": 928}
{"Structure (SMILES)": "Cc1ccc(N2CC3CCC(C2)N3C)cc1C(=O)N[C@H](C)c1cc(-c2cnn(C)c2)nc2ccccc12", "target": "UCHL1 (Homo sapiens, UniProt P09936)", "assay": "enzyme activity", "conditions": "10 µM, 0.5 h", "measurement": "remaining activity", "result": "101%"}
{"Structure (SMILES)": "CS(C)(=O)=Nc1ccc(-c2ccc(-c3nc4cc(O[C@@H]5CO[C@H]6[C@@H]5OC[C@H]6O)[nH]c4cc3F)cc2)cc1", "target": "FLT1 (Homo sapiens, UniProt P17948)", "assay": "enzyme activity, inhibitor", "conditions": "10 µM", "measurement": "inhibition", "result": "12%"}
{"Structure (SMILES)": "O=C1NC(=O)c2c1c1cc(F)c[n+]3c1c1c2c2cc(O)ccc2[n]1[Ru-4]312([N]=C=S)[S+]3CC[S+]1CC[S+]2CC3 (centres unmarked)", "target": "SRC (Homo sapiens, UniProt P12931, T341M)", "assay": "enzyme activity", "conditions": "100 nM, human enzyme, together with: 10 µM ATP", "scale": "baseline: untreated", "measurement": "remaining activity", "result": "35%"}
{"Structure (SMILES)": "N[C@H](C(=O)N1CCCC1)C1CCN(c2nccc3c(-c4ncc(Cl)cc4Cl)cccc23)CC1", "target": "PADI2 (Homo sapiens, UniProt Q9Y2J8)", "assay": "enzyme activity", "conditions": "0.6144 µM, together with: Ca2+ 0.25 mM", "measurement": "kcat", "result": "0.115 s⁻¹ and 0.101 s⁻¹"}
{"Structure (SMILES)": "CC(=O)N[C@@H](CCC(N)=O)C(=O)N[C@@H](CC1CCCCC1)C(=O)N[C@@H](CNC(=O)CCl)C(=O)N[C@@H](CC(C)C)C(=O)N[C@@H](Cc1ccccc1)C(=O)O", "target": "Beta sliding clamp (Escherichia coli, UniProt P0A988, H175G)", "assay": "binding, isothermal titration calorimetry", "conditions": "concentration not given, 25 °C, H175G mutant peptide", "scale": "baseline: wild-type peptide", "measurement": "KD fold reduction", "result": "4 fold"}
{"note": "Repeated from above:"}
{"Structure (SMILES)": "CCCCC/C=C\\C/C=C\\C/C=C\\C/C=C\\CCCC(=O)NCCc1ccc(O)c(O)c1", "target": "Trpv1 (Mus musculus, UniProt Q704Y3, E571S)", "assay": "ion current, agonist, whole-cell patch clamp", "conditions": "E571S", "scale": "baseline: 3 mM 2-APB", "measurement": "maximal open probability", "result": "0.6 ± 0.02"}
{"Structure (SMILES)": "O=C(N1CCCCC1)n1ccnn1", "target": "(Lyso)-N-acylphosphatidylethanolamine lipase (Abhd4, Mus musculus, UniProt Q8VD66)", "assay": "probe labelling, inhibitor, competitive ABPP-SILAC, refers to: Abhd4", "test system": "mouse T cells", "conditions": "concentration not given, 4 h, protein level", "scale": "baseline: treated over DMSO cells, lower = stronger inhibition", "measurement": "SILAC activity ratio", "result": 1.1}
